Measurements pooled from the literature.
Parts stem from different laboratories: compare values within a part only. Positions count from the first letter of the parent shown.

Series 1
Target: RING finger protein unkempt homolog, zinc fingers 1-6, GST-SBP tag (UNK, Homo sapiens, UniProt Q9C0B0, residues 30-357)
Technique: RNA Bind-n-Seq
Molecule type: RNA
Matrix: in vitro
Tested at: not given
Setting: RNA with constant flanks, human and mouse sites, ends assumed
Baseline: input RNA pool
Reading: higher = stronger binding
Construct (chain): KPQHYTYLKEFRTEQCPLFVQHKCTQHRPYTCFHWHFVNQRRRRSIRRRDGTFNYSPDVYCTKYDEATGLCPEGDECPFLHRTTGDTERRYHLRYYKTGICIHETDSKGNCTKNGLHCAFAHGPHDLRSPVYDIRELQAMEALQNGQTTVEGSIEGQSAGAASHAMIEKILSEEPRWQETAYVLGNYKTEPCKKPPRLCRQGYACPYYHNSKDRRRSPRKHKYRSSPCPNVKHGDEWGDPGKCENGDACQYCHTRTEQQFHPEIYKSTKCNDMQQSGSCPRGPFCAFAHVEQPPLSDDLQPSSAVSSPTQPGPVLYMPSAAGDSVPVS
With `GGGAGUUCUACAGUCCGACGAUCGUCCGUGAACUGGUCUCAGGGGGCCGAAGUGUCCGGUUCUCUGAGGCAGAGCAGCGCUGUGUAUCUCGUGGCUUCACACCCGCCCAGUUCCAGGCGGCUCUGGAUGAAUAUGAGGAGCUCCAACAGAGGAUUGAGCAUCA` the bound/input enrichment was 0.0666 ratio.
`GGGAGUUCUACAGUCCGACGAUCAUAUAUAUUCAUUUGCACUUACGUGAAACACAAACUUUGCUCUACAAAAUUUCGUGUUUCUUAGUGAUUUUAAAAUGCAUGUAUUGCAUGUAAAGGAAAACCAUUACAAUUAAUGUUUAUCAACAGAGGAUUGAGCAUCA` gave a bound/input enrichment of 0.338 ratio.
`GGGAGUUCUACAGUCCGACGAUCACGCUAUAUGCCCAUUUUGAACAAGCCAAUAUAAAAACACAAUUGCAGCAACUUGGUGUAACCCUUUCUAUGACUAGAACAGAACUUUCUCCUGCACAGAUCAAACAGCUUUUACAGAAUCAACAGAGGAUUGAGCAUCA` gave a bound/input enrichment of 0.276 ratio.
With `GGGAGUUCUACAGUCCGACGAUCGAGAAUGGCUCUCUUCAACUUGGCGCUGAAGCUGUGGAAGGUGGUAGACAUCAGAAGGGGUUAGGCCGUGCAGUCUUUGAGCUGGAAAAUGGAGAGGCAGAGAUCUACGCUGACCUGUCACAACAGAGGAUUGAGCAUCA` the bound/input enrichment was 0.157 ratio.
For `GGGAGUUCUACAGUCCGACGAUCACUUUUCCAUGCAGAGUUGUGCACAUGGGAGAGGGUAUCCGGUUUGUCCAGUGAUUGUUCUUUAGAGAGUUGGACCACUAUAUUGUGUGUUUGCUAAUCAUUGACUGUAGUCCCAAAAAACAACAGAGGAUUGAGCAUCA`, the bound/input enrichment was 0.194 ratio.
`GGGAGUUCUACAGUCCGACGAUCCGCGCCAUUCAGGGAGCAACAUCACACCAUUUAGGCCAGAAUUUCUCCAAAAUGUGUGAAAUAGUUUUUGAAGAUCCCAAGACACCAGGAGAAAAGCAGUUUGCAUACCAGUGCUCCUGGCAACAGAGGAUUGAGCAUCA` has a bound/input enrichment of 0.402 ratio.
For `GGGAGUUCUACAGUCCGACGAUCAAGUUGCAUCUCAGCGGCAGCCCCAGCGCCCAGCAGUAUGCCGCAGCCAGUGCCGUGCUUUUGGACAAUCUCCCGGGAGUCCGUUGGCUCGUGCUUCCACAGGAACUCAAGGUGGAACUGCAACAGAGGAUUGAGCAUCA`, the bound/input enrichment was 0.0951 ratio.
The bound/input enrichment of `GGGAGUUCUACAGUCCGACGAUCUGUGAAAAGCAGGCUUUGUUUGCUUUAUGCAAGUCUGUGAAGGAAAACAGACUAGAACCUCAUCUUGUGAAAAAGGUUUUAGAGAAAGUCUCCGAAUCGUUUGGAUGUAGAAGUUUAGAACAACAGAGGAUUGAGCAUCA` is reported as 0.876 ratio.
The bound/input enrichment of `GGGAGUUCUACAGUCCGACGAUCCCUUAAUUAGCAGGUACUGUGUAUUUCAUCAGGAAGUCUUUGUAGUUCUAGAUACUCAGCUAGUAUUUUGGAAUUUGUAUAAUGAGAAUGUUUAGAAGCCAUCUAUAUGGCUUUUUUAAACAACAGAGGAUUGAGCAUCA` is reported as 9.22 ratio.
`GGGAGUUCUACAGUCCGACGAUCCGCUGGCCCAAGCUGAUGGACUCUGAUGGCCUCCAUCUCUCAGGCACGUGUGCCUUCUCUUAGUCCCUGUUUUCGGGAUGUUAUGAAUCUCAGUACUGUGGUUUGAAAGCACCAGCUUUGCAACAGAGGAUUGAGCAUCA` has a bound/input enrichment of 0.1 ratio.
With `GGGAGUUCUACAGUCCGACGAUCCCAGUGGAAGAAGGUGACCAAGGCACAGAGGUCAUCUGGCUCACGCAGCACGUGGAGCUGAGCUUUGGCCCUCUUCUUCCUUAAAACACAGUGACCCCACCCACAGCUGUGUCAACACAACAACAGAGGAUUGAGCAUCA` the bound/input enrichment was 0.183 ratio.

Series 2
Target: Interferon regulatory factor 3, full length, phosphomimetic (IRF3, Homo sapiens, UniProt Q14653, residues 1-427, S386D/S396D/S398D/S402D/T404D/S405D)
Technique: protein-binding microarray
Molecule type: double-stranded DNA, one strand shown
Matrix: in vitro
Tested at: 2540 nM top
Setting: 60-bp whole probe
Together with: salmon DNA 0.4 mg/ml
Baseline: random background probes
Reading: higher = stronger binding
All sequences stand within: GCCTAGCAC … GTCTTGATTCGCTTGACGCTGCTG
Residues (chain): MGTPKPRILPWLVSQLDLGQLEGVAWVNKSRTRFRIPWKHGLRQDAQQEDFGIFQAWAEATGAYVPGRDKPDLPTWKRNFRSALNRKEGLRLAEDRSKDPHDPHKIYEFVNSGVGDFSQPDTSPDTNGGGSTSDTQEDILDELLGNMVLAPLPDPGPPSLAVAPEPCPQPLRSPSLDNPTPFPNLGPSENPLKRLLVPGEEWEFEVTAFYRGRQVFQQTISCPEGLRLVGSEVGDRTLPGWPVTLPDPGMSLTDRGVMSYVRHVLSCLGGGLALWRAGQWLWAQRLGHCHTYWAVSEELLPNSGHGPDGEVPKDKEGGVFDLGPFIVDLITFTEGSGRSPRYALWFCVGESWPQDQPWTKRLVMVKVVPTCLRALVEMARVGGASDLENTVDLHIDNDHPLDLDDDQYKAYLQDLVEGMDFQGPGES
For `TTAGGACTGGGGACTGCGTTAGTGCTA`, “fitted relative affinity” read -1.13 z-score.
`GACGGTATACTTATCCTGACGTGCTAG`: “fitted relative affinity” 0.492 z-score.
`GACGGGCTCGGTTTCGGGACGTGCTAG` — result for “fitted relative affinity”: 2.32 z-score.
Under “fitted relative affinity”, `TCAATTTTGTCCTCCCCTACTGTGCTA` is recorded as 0.147 z-score.
For `CTCACCATCATCCTCACTGCGTGCTAG`, “fitted relative affinity” read 0.618 z-score.
`GGGAGATGACTAAGAGGGGTGTGCTAG`: “fitted relative affinity” -1.05 z-score.
Under “fitted relative affinity”, `TTAGGTATCGGGAATCGGTTAGTGCTA` is recorded as 0.658 z-score.
Under “fitted relative affinity”, `GACGGACTGCTACTGATGACGTGCTAG` is recorded as -0.51 z-score.
`GACGGACTGTGGTTTCGGGACGTGCTA`: “fitted relative affinity” 1.66 z-score.
Under “fitted relative affinity”, `GATAATTTTTTTCTAAGTAAGTGCTAG` is recorded as 0.403 z-score.
`TTAGTTTTCAGTTCCGATTAGTGCTAG` — result for “fitted relative affinity”: 4.63 z-score.
For `AGGGAGGTCTCTCCCGACCTGTGCTAG`, “fitted relative affinity” read -0.672 z-score.

Series 3
Target: CCNE1, cyclin fold, Cln2 fusion (human)
Technique: yeast growth competition, sequencing
Matrix: yeast
Setting: weak parent motif
Baseline: not given
Reading: higher = stronger binding
Starting sequence: RB1 docking peptide (human); PKPLKKLRFDIEG
For `P1T`, “normalised enrichment score” read 0.0688.
`I11N`: “normalised enrichment score” 0.586.
Under “normalised enrichment score”, `K2E` is recorded as 0.111.
Under “normalised enrichment score”, `K5H` is recorded as 0.47.
`G13S` — result for “normalised enrichment score”: 0.537.
`P3M`: “normalised enrichment score” 0.621.
`I11F`: “normalised enrichment score” 0.333.
For `L4K`, “normalised enrichment score” read -0.0737.
`L4W`: “normalised enrichment score” 0.236.
Under “normalised enrichment score”, `G13C` is recorded as -0.263.
For `K2P`, “normalised enrichment score” read 0.355.
`K5C` — result for “normalised enrichment score”: 0.56.
`P3W`: “normalised enrichment score” 1.87.

Mixed results
`PhoQ, residues 284 288 289 292 302 303 TTCLQL` gave a fold induction of 2.47 (PhoP, residues 12 14 15 18 19 AQALL (Escherichia coli, UniProt P23836); Sort-seq, item: YFP reporter; E. coli; PhoQ-PhoP variant library, together with: 10 µM Mg2+; baseline: high Mg2+ state, higher = stronger signaling).

Excerpt of the above (series 1):
For `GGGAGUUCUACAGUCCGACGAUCAAGUUGCAUCUCAGCGGCAGCCCCAGCGCCCAGCAGUAUGCCGCAGCCAGUGCCGUGCUUUUGGACAAUCUCCCGGGAGUCCGUUGGCUCGUGCUUCCACAGGAACUCAAGGUGGAACUGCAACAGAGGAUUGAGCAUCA`, the bound/input enrichment was 0.0951 ratio.
The bound/input enrichment of `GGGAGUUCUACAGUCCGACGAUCUGUGAAAAGCAGGCUUUGUUUGCUUUAUGCAAGUCUGUGAAGGAAAACAGACUAGAACCUCAUCUUGUGAAAAAGGUUUUAGAGAAAGUCUCCGAAUCGUUUGGAUGUAGAAGUUUAGAACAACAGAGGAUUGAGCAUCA` is reported as 0.876 ratio.
The bound/input enrichment of `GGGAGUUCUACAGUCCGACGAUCCCUUAAUUAGCAGGUACUGUGUAUUUCAUCAGGAAGUCUUUGUAGUUCUAGAUACUCAGCUAGUAUUUUGGAAUUUGUAUAAUGAGAAUGUUUAGAAGCCAUCUAUAUGGCUUUUUUAAACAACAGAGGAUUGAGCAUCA` is reported as 9.22 ratio.
